Experimental data from different studies.
Each numbered part is a random draw from the data of one study; scales do not carry over between parts. Changes are numbered by the printed parent chain.

Study 1
Target: RING finger protein unkempt homolog, zinc fingers 1-6, SBP tag (UNK, Homo sapiens, UniProt Q9C0B0, residues 30-357)
Chain of UniProt Q9C0B0 (30-357, looked up): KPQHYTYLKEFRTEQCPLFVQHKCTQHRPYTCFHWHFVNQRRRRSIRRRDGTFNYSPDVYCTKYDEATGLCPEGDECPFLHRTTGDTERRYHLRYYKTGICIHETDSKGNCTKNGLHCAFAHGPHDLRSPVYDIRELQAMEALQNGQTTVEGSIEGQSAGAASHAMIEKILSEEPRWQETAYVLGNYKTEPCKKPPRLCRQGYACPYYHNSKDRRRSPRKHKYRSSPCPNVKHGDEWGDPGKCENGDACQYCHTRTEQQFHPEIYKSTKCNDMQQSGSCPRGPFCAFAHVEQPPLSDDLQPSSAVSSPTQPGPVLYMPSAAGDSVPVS
Method: RNA Bind-n-Seq
Form: RNA
Medium: in vitro
Tested at: 100 nM
Setting: RNA with constant flanks, vertebrate orthologous sites, ends assumed
Relative to: input RNA pool
Direction: higher = stronger binding
Shared flanks, not repeated: GGGAGUUCUACAGUCCGACGAUC … CAACAGAGGAUUGAGCAUCA
Sequence | bound/input enrichment [ratio]
UGGGUUACUCCUAUUAUUAUCAAGUAGCUGGAAUUGUGAAGGUCGGAGUAGUUAGAUCUUUAGCUUUUAUUCCUUAUUUUUUUUGUAUUACUAUCCAUGUGUAUAAAUUAUUGAUCAUGU | 3.63
GUUGUGACCCAUUUAACAUACACAAAAAACUAGCCAAAAAAAAUUUGCAUGUAAUUGAUUUAGAUGAUGCCACUUUCCUGAGUGCAAAAUUUGGAAGGCAGCUUGUACCUGGUUGGAAGC | 1.22
AUCACCUAGUUAGGGGUAACCAUUAAUUUAUUUUAAUAAAGGAGAUGCUGAAAGUCCUAUUAGUACUGAGUUUAGUUGGAGAACUGAGAUAAGGAUCUUUGAGGUAAUUCUAAAAUUCAA | 0.785
UUGGGAUCAGCUCCCCAAAUAGGAAUAGUAGUAAAAAAAAUAAGCAAAAUGAUAUUUGUAUAGAAAAAACAGAAGUUAAAUCAUGUAAAGUAAAUGUUGCCAAUAUUCCAGGCCCCAAAG | 1.9
CGUACACUCCUACAUGAGUGAAUUAUUAUUGUCUUUCUUUUCUUUUUUUUUACAUUUUGUAUAGAAAACAUUCAUUUAAGCAAACUUAUUAUUAUUAUUAUUUUUUACAAAAUAUAUCUA | 1.23
UCUAUCUCUUUUCCCCUGUCCUGAUUUUAAAAGCCCCCUCCUUUUUUUUUUUUCUUUUUUUAGGCAUAUGUAGUAAUAUUAGAAACAUUUAAUUUGGGAAACUUUGAUUCUUGAAAGAGA | 0.986
AAAUGCCUUCUGUUCCAUUAAGAAGAACAAGUAUAGUCCCCCAGGUAUAAAACUCCUAGAUAGCUAUUUUUGAAAUGAAAAUGUUUAAAUUUUAUAAAUCAGCUCUUGCCUCUAUACAAC | 1.35
CCAAGCACUGUAGAGGAAGCUGUGCUCGCCUUAGAGCAUUUUUUUUCUUGCUUUUGGUUUUAGGGGUGGGUGGGUUGUGGCACACACCUCUGAGGCCAGAGCCAUCGGGUUCACCUCGUA | 0.542

Study 2
Target: UDP-N-acetylglucosamine--peptide N-acetylglucosaminyltransferase 110 kDa subunit (OGT, Homo sapiens, UniProt O15294)
Chain of UniProt O15294 (whole entry, looked up): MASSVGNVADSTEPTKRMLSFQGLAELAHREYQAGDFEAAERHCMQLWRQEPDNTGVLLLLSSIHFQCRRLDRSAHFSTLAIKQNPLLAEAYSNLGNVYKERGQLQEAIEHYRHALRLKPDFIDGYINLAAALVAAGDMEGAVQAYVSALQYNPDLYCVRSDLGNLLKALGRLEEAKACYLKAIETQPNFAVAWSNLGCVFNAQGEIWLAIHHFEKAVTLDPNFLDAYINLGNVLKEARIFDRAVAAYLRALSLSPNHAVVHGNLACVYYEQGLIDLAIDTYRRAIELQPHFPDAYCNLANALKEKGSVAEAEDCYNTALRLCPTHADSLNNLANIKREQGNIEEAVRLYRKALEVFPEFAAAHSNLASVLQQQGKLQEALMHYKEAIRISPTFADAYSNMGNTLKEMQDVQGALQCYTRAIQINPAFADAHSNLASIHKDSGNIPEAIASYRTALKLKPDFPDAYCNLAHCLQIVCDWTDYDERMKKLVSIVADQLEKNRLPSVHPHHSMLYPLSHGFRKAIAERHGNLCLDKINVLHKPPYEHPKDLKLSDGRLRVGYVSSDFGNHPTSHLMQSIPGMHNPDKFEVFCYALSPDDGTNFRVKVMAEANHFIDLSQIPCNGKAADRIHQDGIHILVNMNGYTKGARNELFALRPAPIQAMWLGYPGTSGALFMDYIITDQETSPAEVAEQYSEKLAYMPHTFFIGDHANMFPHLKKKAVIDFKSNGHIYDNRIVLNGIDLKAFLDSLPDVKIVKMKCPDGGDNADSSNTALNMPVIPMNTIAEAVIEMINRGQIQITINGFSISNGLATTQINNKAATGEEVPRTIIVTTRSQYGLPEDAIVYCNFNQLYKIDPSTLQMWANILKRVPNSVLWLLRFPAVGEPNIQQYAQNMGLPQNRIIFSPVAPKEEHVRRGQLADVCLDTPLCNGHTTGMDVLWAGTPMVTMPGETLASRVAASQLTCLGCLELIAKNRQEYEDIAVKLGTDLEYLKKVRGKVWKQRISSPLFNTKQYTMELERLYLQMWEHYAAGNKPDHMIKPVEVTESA
Observed: binding
Method: phage display NGS
Form: peptide
Tested at: concentration not given
Relative to: input library
Molecule | enrichment fold change
WIFPSQHARHYNTLG | 3.44
HVDVRFPSAHHVRGT | 2.21
MWQHGPMGMTSHYP | 3.08
HGHRWAHPVGPHGPM | 4.31
HRGQGDEEHWHRHQA | 5.95
SRPIKWVPQYQIVI | 2.9
SRTLTPMYQIHPFTS | 2.26
TKMNHHETTSEYLH | 3.1

Study 3
Variant: I33G
Target: ABI1, truncated, D143A, DHFR fusion (Arabidopsis thaliana)
Method: DHFR PCA, deep sequencing
Medium: yeast
Setting: methotrexate growth selection, single substitutions
Relative to: wild-type fitted maximum
Direction: higher = stronger binding
Starting sequence: PYL1, truncated, DHFR fusion (Arabidopsis thaliana); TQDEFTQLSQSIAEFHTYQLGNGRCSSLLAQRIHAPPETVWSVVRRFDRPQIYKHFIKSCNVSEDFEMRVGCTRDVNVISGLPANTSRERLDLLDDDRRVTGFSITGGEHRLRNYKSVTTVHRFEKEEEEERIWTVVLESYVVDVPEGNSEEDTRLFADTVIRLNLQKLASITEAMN
together with | relative binding score [%]
(+)-ABA 17 µM | -4.44
(+)-ABA 58 µM | -10.5
(+)-ABA 0.11 µM | 2.57
(+)-ABA 710 µM | 4.25
(+)-ABA 200 µM | -5.44
(+)-ABA 0 µM | -2.06

Study 4
Target: Transcriptional repressor CTCF (CTCF, Homo sapiens, UniProt P49711, residues 1-727, full length assumed)
Chain of UniProt P49711 (whole entry, looked up): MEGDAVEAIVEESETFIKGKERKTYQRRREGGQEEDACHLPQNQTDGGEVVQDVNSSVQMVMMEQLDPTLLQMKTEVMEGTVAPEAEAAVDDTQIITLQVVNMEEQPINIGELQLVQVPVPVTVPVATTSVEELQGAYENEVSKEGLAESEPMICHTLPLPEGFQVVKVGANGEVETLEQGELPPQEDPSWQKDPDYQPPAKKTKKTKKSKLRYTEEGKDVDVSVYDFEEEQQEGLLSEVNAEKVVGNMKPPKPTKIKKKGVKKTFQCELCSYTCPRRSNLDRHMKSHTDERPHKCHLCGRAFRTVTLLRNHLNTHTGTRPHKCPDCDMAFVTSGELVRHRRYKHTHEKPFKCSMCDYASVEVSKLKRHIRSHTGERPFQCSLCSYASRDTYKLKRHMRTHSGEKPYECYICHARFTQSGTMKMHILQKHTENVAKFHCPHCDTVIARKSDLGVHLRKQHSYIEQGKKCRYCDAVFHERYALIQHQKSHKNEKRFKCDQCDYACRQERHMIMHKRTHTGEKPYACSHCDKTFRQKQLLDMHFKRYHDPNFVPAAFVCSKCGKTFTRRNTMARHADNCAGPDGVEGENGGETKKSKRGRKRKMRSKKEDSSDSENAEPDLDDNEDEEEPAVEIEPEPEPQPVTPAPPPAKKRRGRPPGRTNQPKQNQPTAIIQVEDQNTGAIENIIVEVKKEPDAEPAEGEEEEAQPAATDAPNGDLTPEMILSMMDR
Method: protein-binding microarray
Form: double-stranded DNA, one strand shown
Medium: in vitro
Tested at: not given
Setting: k-mer, scored over probes, only values ≥0.25
Direction: higher = stronger binding
Sequence | E-score
ATATTTAA | 0.362
ATAGCGCG | 0.269
AACATAAC | 0.271
ATTATTTG | 0.389
AATTAAAC | 0.301
ATATTAAA | 0.404
CTGTGCGC | 0.367
CATTTTAC | 0.354

Study 5
Target: inorganic phosphate, free oxyanion
Method: microfluidic competitive inhibition
Medium: in vitro, cell-free expressed
Tested at: not given
Setting: derived from inhibition constants, unchanged parent 615000 nM
Direction: lower = stronger binding
Starting sequence: PafA, mature enzyme, eGFP fusion (Elizabethkingia meningoseptica, UniProt Q9KJX5); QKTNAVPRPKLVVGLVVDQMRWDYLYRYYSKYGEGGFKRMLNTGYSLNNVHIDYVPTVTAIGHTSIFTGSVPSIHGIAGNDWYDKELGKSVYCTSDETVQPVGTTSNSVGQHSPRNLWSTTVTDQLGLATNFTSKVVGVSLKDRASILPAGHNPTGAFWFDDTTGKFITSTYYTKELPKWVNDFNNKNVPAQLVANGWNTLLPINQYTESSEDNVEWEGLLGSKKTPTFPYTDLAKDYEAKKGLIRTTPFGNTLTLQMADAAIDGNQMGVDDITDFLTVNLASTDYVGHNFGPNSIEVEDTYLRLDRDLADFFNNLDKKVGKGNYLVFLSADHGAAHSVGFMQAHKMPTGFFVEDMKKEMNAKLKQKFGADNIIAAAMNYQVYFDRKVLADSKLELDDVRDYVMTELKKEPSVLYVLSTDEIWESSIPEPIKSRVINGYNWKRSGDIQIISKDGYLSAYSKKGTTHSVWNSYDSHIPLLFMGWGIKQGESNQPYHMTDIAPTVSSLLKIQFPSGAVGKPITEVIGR
Variant | phosphate dissociation constant
G265A | 631 µM
P190V | 484 µM
Y231V | 509 µM
D401V | 594 µM
P7V | 625 µM
K358V | 700 µM
G88V | 663 µM
D306G | 607 µM
Y24V | 625 µM
V327G | 543 µM
S467V | 1030 µM
V353A | 713 µM
G197V | 628 µM
T232G | 590 µM
V91G | 2200 µM
Y494V | 573 µM
A5G | 577 µM
G197A | 585 µM
P430V | 558 µM
V50A | 506 µM
E429V | 515 µM
F312V | 555 µM
L305G | 668 µM
G103A | 596 µM
T349V | 551 µM

Excerpt of the above (study 1):
Sequence | bound/input enrichment [ratio]
UGGGUUACUCCUAUUAUUAUCAAGUAGCUGGAAUUGUGAAGGUCGGAGUAGUUAGAUCUUUAGCUUUUAUUCCUUAUUUUUUUUGUAUUACUAUCCAUGUGUAUAAAUUAUUGAUCAUGU | 3.63
CGUACACUCCUACAUGAGUGAAUUAUUAUUGUCUUUCUUUUCUUUUUUUUUACAUUUUGUAUAGAAAACAUUCAUUUAAGCAAACUUAUUAUUAUUAUUAUUUUUUACAAAAUAUAUCUA | 1.23
CCAAGCACUGUAGAGGAAGCUGUGCUCGCCUUAGAGCAUUUUUUUUCUUGCUUUUGGUUUUAGGGGUGGGUGGGUUGUGGCACACACCUCUGAGGCCAGAGCCAUCGGGUUCACCUCGUA | 0.542
